# Experimental data of several laboratories.
# A part holds a random share of what one study measured. Several values in a cell are separate wells, animals, samples, runs or records.
# Sequence of UniProt P54760 (whole entry, looked up): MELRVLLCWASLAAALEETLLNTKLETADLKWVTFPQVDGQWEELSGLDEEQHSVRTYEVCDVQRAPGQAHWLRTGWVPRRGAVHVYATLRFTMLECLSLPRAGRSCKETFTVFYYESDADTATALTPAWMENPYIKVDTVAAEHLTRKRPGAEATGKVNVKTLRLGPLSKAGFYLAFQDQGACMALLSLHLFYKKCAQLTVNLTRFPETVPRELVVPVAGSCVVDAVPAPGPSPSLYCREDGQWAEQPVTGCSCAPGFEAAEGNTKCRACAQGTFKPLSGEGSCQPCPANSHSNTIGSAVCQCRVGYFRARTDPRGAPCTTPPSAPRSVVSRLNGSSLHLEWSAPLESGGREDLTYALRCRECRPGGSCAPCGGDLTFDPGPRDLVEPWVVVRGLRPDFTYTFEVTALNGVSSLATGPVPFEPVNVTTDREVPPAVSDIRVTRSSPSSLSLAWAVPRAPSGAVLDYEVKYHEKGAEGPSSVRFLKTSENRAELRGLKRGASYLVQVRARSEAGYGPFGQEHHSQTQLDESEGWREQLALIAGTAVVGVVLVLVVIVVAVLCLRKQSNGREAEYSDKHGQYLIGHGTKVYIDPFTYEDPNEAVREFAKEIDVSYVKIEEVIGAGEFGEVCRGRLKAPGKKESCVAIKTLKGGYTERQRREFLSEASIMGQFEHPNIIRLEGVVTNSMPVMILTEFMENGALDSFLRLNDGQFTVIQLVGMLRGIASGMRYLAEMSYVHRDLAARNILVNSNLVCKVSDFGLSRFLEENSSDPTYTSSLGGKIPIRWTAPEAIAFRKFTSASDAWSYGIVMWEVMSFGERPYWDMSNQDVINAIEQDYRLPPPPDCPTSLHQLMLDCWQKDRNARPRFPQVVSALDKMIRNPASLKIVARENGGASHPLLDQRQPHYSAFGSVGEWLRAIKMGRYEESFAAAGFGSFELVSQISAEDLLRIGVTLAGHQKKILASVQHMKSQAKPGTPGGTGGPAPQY
# Sequence of UniProt Q13554 (whole entry, looked up): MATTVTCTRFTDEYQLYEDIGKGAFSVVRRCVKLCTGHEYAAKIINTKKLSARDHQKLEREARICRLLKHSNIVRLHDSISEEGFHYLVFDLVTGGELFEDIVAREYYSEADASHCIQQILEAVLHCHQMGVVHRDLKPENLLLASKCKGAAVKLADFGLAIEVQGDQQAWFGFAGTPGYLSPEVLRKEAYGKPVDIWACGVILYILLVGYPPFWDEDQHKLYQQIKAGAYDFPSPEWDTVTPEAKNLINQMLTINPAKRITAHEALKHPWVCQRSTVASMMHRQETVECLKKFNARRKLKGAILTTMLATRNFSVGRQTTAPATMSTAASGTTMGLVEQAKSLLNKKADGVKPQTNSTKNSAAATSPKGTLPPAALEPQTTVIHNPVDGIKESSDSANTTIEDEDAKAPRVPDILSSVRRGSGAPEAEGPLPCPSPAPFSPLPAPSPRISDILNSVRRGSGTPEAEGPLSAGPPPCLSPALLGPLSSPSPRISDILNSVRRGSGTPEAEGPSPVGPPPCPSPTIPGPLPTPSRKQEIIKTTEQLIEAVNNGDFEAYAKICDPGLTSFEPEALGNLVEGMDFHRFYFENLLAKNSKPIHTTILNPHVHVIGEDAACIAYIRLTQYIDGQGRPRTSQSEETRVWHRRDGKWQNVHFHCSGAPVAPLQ
# Sequence of UniProt Q9UPE1 (whole entry, looked up): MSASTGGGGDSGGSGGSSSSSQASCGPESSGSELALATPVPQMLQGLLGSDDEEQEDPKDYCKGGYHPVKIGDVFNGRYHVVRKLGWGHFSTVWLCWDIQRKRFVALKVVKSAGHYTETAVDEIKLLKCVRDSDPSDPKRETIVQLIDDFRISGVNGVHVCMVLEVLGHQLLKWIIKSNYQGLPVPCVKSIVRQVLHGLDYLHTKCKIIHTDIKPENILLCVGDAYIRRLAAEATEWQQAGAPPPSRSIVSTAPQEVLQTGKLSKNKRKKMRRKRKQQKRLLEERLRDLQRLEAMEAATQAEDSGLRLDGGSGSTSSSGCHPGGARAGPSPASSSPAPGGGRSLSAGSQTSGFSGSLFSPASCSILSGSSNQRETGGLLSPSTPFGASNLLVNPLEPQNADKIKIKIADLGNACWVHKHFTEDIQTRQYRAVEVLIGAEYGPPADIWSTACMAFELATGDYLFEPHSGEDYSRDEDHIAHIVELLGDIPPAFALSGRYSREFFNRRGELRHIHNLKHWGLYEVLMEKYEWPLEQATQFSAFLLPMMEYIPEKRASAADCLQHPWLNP
# Sequence of UniProt Q16513 (whole entry, looked up): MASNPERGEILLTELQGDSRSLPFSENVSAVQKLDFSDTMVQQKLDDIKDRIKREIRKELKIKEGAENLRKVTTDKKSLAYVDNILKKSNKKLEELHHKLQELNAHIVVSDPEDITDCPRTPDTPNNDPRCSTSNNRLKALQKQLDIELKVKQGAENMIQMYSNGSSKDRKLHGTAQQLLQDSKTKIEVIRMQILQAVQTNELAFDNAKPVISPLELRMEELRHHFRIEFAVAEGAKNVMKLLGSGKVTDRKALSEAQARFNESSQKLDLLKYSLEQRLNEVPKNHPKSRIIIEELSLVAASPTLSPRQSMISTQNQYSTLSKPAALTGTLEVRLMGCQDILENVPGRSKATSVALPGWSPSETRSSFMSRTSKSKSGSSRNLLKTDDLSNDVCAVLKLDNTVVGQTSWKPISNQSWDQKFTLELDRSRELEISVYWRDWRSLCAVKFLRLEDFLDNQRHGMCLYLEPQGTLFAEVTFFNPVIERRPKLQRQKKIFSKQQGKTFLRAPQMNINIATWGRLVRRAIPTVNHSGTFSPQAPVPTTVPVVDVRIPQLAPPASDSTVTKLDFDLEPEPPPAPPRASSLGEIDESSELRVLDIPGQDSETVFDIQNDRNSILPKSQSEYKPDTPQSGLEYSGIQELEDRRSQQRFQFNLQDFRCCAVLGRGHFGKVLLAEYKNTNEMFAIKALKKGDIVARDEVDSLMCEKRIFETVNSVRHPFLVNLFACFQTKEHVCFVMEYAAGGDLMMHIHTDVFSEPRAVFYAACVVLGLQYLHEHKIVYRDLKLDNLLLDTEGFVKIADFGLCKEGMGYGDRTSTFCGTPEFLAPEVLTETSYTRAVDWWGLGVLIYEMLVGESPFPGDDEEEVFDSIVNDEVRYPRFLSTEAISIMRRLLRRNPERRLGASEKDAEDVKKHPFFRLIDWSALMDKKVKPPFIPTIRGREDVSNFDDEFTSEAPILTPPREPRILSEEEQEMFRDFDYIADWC
# Sequence of UniProt P19525 (whole entry, looked up): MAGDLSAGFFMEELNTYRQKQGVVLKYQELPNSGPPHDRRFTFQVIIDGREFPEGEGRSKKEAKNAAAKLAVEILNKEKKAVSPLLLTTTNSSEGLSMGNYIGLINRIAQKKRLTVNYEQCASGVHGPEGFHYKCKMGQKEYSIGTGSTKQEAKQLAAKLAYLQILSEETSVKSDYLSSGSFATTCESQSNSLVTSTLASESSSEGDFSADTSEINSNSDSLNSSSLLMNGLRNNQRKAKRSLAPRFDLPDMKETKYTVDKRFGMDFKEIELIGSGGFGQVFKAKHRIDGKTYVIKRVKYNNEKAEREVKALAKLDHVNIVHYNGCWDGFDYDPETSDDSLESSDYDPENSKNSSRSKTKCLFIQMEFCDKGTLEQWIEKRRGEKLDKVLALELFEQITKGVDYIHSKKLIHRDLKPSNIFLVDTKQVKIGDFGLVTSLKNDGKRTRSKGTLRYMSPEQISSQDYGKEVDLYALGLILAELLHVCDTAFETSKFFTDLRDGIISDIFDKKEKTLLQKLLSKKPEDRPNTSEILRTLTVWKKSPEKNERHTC
# Sequence of UniProt Q9H2X6 (whole entry, looked up): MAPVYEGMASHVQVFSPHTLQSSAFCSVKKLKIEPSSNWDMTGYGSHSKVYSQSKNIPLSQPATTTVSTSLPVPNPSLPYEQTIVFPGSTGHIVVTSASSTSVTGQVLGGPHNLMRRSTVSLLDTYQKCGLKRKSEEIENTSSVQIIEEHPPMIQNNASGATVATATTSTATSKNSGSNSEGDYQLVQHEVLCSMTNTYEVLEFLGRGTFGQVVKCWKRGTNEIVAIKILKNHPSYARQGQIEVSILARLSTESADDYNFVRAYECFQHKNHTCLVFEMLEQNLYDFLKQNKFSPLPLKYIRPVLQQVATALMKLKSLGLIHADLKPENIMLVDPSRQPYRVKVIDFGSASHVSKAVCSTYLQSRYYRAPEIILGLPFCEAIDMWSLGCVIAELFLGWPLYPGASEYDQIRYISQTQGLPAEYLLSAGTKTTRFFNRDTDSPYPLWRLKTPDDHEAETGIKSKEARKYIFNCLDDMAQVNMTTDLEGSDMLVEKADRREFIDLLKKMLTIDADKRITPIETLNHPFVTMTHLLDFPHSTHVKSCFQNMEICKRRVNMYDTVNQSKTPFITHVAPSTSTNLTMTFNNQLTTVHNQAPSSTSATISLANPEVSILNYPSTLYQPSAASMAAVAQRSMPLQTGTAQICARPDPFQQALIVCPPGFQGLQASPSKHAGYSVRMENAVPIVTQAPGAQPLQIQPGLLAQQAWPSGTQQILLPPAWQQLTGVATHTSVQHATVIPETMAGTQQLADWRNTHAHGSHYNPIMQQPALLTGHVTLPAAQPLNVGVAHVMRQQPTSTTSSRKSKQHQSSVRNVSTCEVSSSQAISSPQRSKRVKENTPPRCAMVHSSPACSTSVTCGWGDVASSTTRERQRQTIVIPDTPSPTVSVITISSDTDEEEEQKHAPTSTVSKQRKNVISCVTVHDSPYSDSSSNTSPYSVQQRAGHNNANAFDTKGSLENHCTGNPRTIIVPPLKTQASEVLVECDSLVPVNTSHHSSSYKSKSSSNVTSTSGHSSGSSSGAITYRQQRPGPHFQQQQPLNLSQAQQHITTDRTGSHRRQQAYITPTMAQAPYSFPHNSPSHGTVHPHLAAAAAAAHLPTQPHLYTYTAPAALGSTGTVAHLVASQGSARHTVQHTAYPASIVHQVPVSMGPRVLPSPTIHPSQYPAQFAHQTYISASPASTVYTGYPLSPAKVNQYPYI

# Sample 1 — SMILES: c1ccc(N2CCN(Cc3nc4ccccc4[nH]3)CC2)nc1; technique: competition with immobilised ligand; tested at: 1 µM
target,effect on,remaining binding
"NIM1K (Homo sapiens, UniProt Q8IY84)",binding,100%
"SGK2 (Homo sapiens, UniProt Q9HBY8)",binding,100%
"MAPK6 (Homo sapiens, UniProt Q16659)",binding,100%
"CLK1 (Homo sapiens, UniProt P49759)",binding,100%
"NLK (Homo sapiens, UniProt Q9UBE8)",binding,100%
"MAPK14 (Homo sapiens, UniProt Q16539)",binding,89%
"MYLK2 (Homo sapiens, UniProt Q9H1R3)",binding,91%
"EIF2AK2 (Homo sapiens, UniProt P19525)",binding,100%
"LRRK2 (Homo sapiens, UniProt Q5S007, G2019S)",binding,100%
"MINK1 (Homo sapiens, UniProt Q8N4C8)",binding,100%
"PDGFRB (Homo sapiens, UniProt P09619)",cell-free assay,100%
"FLT3 (Homo sapiens, UniProt P36888, K663Q)",binding,100%
"KDR (Homo sapiens, UniProt P35968)",cell-free assay,100%
"ERBB4 (Homo sapiens, UniProt Q15303)",binding,95%
"STK4 (Homo sapiens, UniProt Q13043)",binding,100%
"FLT3 (Homo sapiens, UniProt P36888, D835V)",binding,88%
"Myosin-IIIb (MYO3B, Homo sapiens, UniProt Q8WXR4)",binding,95%
"PAK1 (Homo sapiens, UniProt Q13153)",cell-free assay,94%
"STK24 (Homo sapiens, UniProt Q9Y6E0)",binding,100%
"LYN (Homo sapiens, UniProt P07948)",cell-free assay,100%
"STK11 (Homo sapiens, UniProt Q15831)",binding,70%
"PKN2 (Homo sapiens, UniProt Q16513)",binding,100%
"SRPK3 (Homo sapiens, UniProt Q9UPE1)",binding,100%
"FLT3 (Homo sapiens, UniProt P36888, D835H)",binding,100%
"TNNI3K (Homo sapiens, UniProt Q59H18)",cell-free assay,100%

# Sample 2
# Compound: CC(C)n1cnc(-c2ccc(F)cc2)c1-c1ncc(C(=O)Nc2ccc(N3CCN(C)CC3)cc2)[nH]1
technique,refers to,species,route,dose,setting,patients with adverse event [%]
Phase 2a trial,blood pressure increased,"human, idiopathic pulmonary fibrosis",,30 mg once daily,grade 1,0
Phase 2a trial,hypoalbuminaemia,"human, idiopathic pulmonary fibrosis",,60 mg once daily,grade 2,0
Phase 2a trial,haemorrhoids,"human, idiopathic pulmonary fibrosis",,60 mg once daily,grade 2,0
Phase 2a trial,hyperuricaemia,"human, idiopathic pulmonary fibrosis",,30 mg once daily,grade 5,0
Phase 2a trial,hepatic steatosis,"human, idiopathic pulmonary fibrosis",,30 mg once daily,grade 1,0
,"prostatic calcification, maximum grade 3",idiopathic pulmonary fibrosis patients,oral,60 mg once daily,,0
Phase 2a trial,hyperlipidaemia,"human, idiopathic pulmonary fibrosis",,all compound arms total,grade 2,0
Phase 2a trial,hyperlipidaemia,"human, idiopathic pulmonary fibrosis",,all compound arms total,grade 4,0
Phase 2a trial,hypercholesterolaemia,"human, idiopathic pulmonary fibrosis",,60 mg once daily,grade 4,0
Phase 2a trial,haemorrhoids,"human, idiopathic pulmonary fibrosis",,60 mg once daily,grade 4,0

# Sample 3 — effect on: enzyme activity; action: inhibitor; tested at: 0.5 µM; reference: control
# Structure (SMILES): O=Nc1c(-c2c(O)[nH]c3cc(Br)ccc23)[nH]c2ccccc12
target,remaining activity [%]
"AXL (Homo sapiens, UniProt P30530)",57.7
"SRMS (Homo sapiens, UniProt Q9H3Y6)",99.6
"TSSK2 (Homo sapiens, UniProt Q96PF2)",101
"STK16 (Homo sapiens, UniProt O75716)",64
"MAPKAPK3 (Homo sapiens, UniProt Q16644)",96.1
"BLK (Homo sapiens, UniProt P51451)",11.3
"Cyclin-dependent kinase 6, with cyclin D3 (CDK6, Homo sapiens, UniProt Q00534)",25.4
"STK17A (Homo sapiens, UniProt Q9UEE5)",49.2
"Cyclin-dependent kinase 1, with cyclin B (CDK1, Homo sapiens, UniProt P06493)",50.5
"HIPK2 (Homo sapiens, UniProt Q9H2X6)",96.2
"PDPK1 (Homo sapiens, UniProt O15530)",86.4
"HIPK4 (Homo sapiens, UniProt Q8NE63)",106
"RPS6KA5 (Homo sapiens, UniProt O75582)",82.6
"DYRK3 (Homo sapiens, UniProt O43781)",104
"EPHA4 (Homo sapiens, UniProt P54764)",90.2
"Cyclin-dependent kinase 4, with cyclin D3 (CDK4, Homo sapiens, UniProt P11802)",75.9
"RPS6KA6 (Homo sapiens, UniProt Q9UK32)",43.1
"WNK3 (Homo sapiens, UniProt Q9BYP7)",93.8
"PHKG1 (Homo sapiens, UniProt Q16816)",41.8
"EPHB4 (Homo sapiens, UniProt P54760)",78.5
"CAMK2B (Homo sapiens, UniProt Q13554)",65.8
"EPHB1 (Homo sapiens, UniProt P54762)",72.3

# Single results of other studies — time: 72 h; together with: ISRIB; reference: vehicle
SMILES,cell line,technique,tested at,GCase activity
Ic1ccc(Nc2nc(NCCN3CCOCC3)nc(N3CCOCC3)n2)cc1,Gaucher fibroblasts L444P/L444P,"4-MUG hydrolysis, cell lysate",1 µM,167% and 151% and 163% and 146% and 117% and 137%
c1ccc2c(-c3nn4c(-c5ccncc5)nnc4s3)c[nH]c2c1,Gaucher fibroblasts L444P/L444P,"4-MUG hydrolysis, cell lysate",0.5 µM,208% and 198% and 186% and 188% and 201% and 187%
Cc1cccc(/C=N/Nc2cc(N3CCOCC3)nc(OCCc3ccccn3)n2)c1,L444P/L444P Gaucher fibroblasts,4-MUG hydrolysis in lysate,0.5 µM,184% and 229% and 193% and 195% and 203% and 179% and 202%

# Some of these lines once more (sample 3):
target,remaining activity [%]
"STK16 (Homo sapiens, UniProt O75716)",64
"MAPKAPK3 (Homo sapiens, UniProt Q16644)",96.1
"BLK (Homo sapiens, UniProt P51451)",11.3
"Cyclin-dependent kinase 6, with cyclin D3 (CDK6, Homo sapiens, UniProt Q00534)",25.4
"STK17A (Homo sapiens, UniProt Q9UEE5)",49.2
"Cyclin-dependent kinase 1, with cyclin B (CDK1, Homo sapiens, UniProt P06493)",50.5
"HIPK2 (Homo sapiens, UniProt Q9H2X6)",96.2
"PDPK1 (Homo sapiens, UniProt O15530)",86.4
"HIPK4 (Homo sapiens, UniProt Q8NE63)",106
